Results from different studies.
Numbered parts are unrelated; each lists some results of a single study.
Chain of UniProt Q15349 (whole entry, looked up): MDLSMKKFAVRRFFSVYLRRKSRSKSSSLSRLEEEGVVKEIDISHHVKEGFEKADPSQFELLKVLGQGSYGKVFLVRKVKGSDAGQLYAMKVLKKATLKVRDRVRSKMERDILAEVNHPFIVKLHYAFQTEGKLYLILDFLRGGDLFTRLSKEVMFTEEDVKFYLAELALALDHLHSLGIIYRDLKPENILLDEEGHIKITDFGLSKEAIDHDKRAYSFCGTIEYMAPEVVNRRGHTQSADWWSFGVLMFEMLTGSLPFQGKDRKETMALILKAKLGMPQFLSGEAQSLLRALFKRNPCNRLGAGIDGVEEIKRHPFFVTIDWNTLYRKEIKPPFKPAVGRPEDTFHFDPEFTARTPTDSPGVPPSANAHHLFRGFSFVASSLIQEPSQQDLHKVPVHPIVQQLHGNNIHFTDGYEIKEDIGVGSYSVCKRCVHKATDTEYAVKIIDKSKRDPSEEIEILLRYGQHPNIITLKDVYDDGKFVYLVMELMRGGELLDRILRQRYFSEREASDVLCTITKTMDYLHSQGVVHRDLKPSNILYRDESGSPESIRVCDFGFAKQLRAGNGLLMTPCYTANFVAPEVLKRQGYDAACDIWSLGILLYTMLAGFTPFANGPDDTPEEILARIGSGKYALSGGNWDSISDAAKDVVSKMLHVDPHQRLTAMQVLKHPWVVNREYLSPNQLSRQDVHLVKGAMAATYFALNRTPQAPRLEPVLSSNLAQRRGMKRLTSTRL
Chain of UniProt P10721 (whole entry, unmodified, looked up): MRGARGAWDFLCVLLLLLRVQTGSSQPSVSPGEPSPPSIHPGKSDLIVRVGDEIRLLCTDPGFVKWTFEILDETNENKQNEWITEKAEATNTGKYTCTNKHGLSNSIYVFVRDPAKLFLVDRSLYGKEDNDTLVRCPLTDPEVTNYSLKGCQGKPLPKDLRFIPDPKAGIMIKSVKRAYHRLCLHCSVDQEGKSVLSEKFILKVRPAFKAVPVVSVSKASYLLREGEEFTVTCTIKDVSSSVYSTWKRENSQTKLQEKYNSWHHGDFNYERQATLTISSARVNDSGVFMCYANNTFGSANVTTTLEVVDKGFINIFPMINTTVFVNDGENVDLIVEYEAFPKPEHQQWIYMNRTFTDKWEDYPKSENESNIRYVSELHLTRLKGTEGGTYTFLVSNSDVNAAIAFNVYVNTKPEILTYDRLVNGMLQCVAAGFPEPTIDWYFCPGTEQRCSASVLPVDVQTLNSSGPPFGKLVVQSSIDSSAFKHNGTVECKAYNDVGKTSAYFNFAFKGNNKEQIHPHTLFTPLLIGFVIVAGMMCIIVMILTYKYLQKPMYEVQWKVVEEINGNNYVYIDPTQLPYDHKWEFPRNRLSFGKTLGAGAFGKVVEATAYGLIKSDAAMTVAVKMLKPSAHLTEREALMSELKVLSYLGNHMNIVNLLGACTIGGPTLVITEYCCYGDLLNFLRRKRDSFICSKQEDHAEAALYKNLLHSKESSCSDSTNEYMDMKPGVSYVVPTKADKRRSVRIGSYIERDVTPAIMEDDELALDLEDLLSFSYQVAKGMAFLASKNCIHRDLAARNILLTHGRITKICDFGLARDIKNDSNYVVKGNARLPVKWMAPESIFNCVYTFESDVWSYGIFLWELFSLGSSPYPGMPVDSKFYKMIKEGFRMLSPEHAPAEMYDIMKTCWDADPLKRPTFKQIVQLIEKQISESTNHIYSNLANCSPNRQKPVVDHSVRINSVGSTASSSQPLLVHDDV
Chain of UniProt P42685 (whole entry, looked up): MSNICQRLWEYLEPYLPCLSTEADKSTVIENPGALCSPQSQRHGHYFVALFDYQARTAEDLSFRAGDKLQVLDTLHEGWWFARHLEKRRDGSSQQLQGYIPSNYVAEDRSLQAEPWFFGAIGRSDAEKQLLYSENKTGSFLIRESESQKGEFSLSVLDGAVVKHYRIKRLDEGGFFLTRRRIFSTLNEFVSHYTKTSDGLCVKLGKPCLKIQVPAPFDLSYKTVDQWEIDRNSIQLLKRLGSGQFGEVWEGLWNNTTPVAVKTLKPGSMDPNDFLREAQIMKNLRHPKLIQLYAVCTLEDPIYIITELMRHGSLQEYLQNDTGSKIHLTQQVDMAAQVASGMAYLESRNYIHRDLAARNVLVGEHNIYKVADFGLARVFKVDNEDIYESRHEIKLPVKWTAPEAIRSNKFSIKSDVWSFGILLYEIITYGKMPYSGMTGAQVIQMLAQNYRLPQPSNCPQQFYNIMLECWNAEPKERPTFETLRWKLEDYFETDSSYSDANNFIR
Chain of UniProt Q9Y6M4 (whole entry, looked up): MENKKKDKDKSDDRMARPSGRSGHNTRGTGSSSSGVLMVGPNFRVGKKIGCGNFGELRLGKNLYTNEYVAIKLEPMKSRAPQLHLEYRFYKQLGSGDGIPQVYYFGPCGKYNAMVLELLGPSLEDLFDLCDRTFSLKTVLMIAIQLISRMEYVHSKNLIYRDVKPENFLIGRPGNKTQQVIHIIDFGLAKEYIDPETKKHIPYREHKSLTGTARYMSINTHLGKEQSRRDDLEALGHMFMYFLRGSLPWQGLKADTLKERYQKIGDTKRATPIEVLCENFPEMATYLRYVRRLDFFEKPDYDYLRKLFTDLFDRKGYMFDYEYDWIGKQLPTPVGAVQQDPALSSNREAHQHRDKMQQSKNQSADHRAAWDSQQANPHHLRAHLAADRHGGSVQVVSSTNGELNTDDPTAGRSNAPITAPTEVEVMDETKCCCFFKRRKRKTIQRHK
Chain of UniProt Q16620 (whole entry, looked up): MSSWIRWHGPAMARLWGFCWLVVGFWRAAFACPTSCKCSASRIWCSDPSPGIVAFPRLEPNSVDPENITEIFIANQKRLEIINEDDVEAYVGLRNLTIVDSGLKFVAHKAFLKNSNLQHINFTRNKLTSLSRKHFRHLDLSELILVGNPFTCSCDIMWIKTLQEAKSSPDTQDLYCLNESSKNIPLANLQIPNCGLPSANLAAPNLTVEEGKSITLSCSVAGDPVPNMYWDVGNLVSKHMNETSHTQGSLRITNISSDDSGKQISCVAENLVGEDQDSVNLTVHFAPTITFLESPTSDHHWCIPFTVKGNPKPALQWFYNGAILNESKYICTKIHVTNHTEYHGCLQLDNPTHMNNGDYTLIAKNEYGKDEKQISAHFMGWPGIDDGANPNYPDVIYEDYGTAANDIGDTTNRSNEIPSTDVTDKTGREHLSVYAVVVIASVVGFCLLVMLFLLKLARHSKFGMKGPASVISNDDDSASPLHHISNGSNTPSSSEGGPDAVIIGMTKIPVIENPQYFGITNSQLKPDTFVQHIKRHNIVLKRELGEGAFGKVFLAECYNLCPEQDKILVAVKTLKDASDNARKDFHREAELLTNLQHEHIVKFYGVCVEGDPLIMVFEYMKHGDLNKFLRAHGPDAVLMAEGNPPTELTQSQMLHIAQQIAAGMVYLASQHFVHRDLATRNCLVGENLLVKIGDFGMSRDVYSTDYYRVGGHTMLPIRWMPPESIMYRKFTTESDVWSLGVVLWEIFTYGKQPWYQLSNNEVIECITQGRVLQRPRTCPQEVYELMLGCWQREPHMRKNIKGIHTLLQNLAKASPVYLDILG
Chain of UniProt Q08345 (whole entry, looked up): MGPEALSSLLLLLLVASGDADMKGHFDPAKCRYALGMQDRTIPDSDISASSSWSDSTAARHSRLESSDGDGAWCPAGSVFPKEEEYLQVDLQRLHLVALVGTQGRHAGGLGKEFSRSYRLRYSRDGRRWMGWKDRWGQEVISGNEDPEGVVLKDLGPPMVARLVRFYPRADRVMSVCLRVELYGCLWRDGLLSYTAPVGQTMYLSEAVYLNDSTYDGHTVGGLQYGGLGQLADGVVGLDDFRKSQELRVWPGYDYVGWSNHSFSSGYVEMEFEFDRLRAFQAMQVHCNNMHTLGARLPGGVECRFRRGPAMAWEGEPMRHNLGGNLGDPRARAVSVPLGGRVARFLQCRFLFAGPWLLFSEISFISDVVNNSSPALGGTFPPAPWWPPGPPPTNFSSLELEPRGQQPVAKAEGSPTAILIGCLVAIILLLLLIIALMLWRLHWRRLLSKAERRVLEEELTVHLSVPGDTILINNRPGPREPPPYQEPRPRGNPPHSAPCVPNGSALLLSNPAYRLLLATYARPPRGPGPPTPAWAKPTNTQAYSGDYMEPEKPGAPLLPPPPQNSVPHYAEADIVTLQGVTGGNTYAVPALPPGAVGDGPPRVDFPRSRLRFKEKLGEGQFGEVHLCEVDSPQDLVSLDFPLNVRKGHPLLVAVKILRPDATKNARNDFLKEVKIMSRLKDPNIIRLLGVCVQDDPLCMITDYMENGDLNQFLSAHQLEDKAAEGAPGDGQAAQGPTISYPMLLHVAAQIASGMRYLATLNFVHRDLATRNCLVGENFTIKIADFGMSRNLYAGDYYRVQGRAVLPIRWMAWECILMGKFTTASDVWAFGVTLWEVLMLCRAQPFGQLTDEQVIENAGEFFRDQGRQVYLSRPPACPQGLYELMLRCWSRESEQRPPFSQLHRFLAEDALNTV
Chain of UniProt P36507 (whole entry, looked up): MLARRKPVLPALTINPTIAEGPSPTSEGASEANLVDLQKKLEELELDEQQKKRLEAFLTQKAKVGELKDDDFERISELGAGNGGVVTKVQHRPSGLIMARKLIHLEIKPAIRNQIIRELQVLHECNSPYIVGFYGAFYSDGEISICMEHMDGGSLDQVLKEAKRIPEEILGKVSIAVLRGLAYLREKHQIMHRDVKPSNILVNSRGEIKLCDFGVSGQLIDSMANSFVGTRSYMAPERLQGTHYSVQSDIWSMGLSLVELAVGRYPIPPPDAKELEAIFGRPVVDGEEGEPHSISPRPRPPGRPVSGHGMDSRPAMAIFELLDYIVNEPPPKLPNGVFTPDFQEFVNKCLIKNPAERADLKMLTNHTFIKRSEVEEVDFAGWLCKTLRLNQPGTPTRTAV

Study 1
Compound: N=C(N)NC(=O)c1cnn(-c2cccc3ncccc23)c1C1CC1
Observed: β-arrestin recruitment
Mode: agonist
Method: PRESTO-Tango
Tested at: 10 µM
Baseline: untreated
Measurement: fold over basal
Chemerin-like receptor 2 (CMKLR2, Homo sapiens, UniProt P46091): 1.01
Trace amine-associated receptor 6 (TAAR6, Homo sapiens, UniProt Q96RI8): 1.34 fold
Glucagon-like peptide 1 receptor (GLP1R, Homo sapiens, UniProt P43220): 0.65 fold
Neuropeptide Y receptor type 2 (NPY2R, Homo sapiens, UniProt P49146): 0.67
Prostaglandin E2 receptor EP2 subtype (PTGER2, Homo sapiens, UniProt P43116): 1.13
Trace amine-associated receptor 5 (TAAR5, Homo sapiens, UniProt O14804): 1.32 fold

Study 2
Compound: O=C1C(Cl)=C(N2C(=O)CCC2=O)C(=O)c2ccccc21
Observed: enzyme activity
Mode: inhibitor
Tested at: 0.5 µM
Baseline: control
Measurement: remaining activity
Tyrosine-protein kinase Lck (LCK, Homo sapiens, UniProt P06239): 106%
Tyrosine-protein kinase JAK3 (JAK3, Homo sapiens, UniProt P52333): 101%
Activin receptor type-1B (ACVR1B, Homo sapiens, UniProt P36896): 106%
Glycogen synthase kinase-3 beta (GSK3B, Homo sapiens, UniProt P49841): 100%
Ribosomal protein S6 kinase alpha-2 (RPS6KA2, Homo sapiens, UniProt Q15349): 104%
Serine/threonine-protein kinase Nek1 (NEK1, Homo sapiens, UniProt Q96PY6): 90%
Casein kinase I isoform gamma-3 (CSNK1G3, Homo sapiens, UniProt Q9Y6M4): 93.5%
Ephrin type-A receptor 3 (EPHA3, Homo sapiens, UniProt P29320): 105%
Tyrosine-protein kinase FRK (FRK, Homo sapiens, UniProt P42685): 103%
Serine/threonine-protein kinase ULK3 (ULK3, Homo sapiens, UniProt Q6PHR2): 102%
Fibroblast growth factor receptor 3 (FGFR3, Homo sapiens, UniProt P22607): 106%
Mitogen-activated protein kinase kinase kinase 5 (MAP3K5, Homo sapiens, UniProt Q99683): 99.1%
Macrophage-stimulating protein receptor (MST1R, Homo sapiens, UniProt Q04912): 94.5%

Study 3
SMILES: COc1cc(-c2cn(C3CCc4ccccc4N(CC(F)(F)F)C3=O)nn2)ccc1-n1ccc(C)n1 (stereo not drawn)
Observed: cell-free assay
Method: competition with immobilised ligand
Tested at: 1 µM
Measurement: remaining binding
BDNF/NT-3 growth factors receptor (NTRK2, Homo sapiens, UniProt Q16620): 93%
Homeodomain-interacting protein kinase 2 (HIPK2, Homo sapiens, UniProt Q9H2X6): 82%
Epidermal growth factor receptor (EGFR, Homo sapiens, UniProt P00533, G719S): 100%
Mast/stem cell growth factor receptor Kit (KIT, Homo sapiens, UniProt P10721): 96%
Dual specificity mitogen-activated protein kinase kinase 2 (MAP2K2, Homo sapiens, UniProt P36507): 98%
cGMP-dependent protein kinase 1 (PRKG1, Homo sapiens, UniProt Q13976): 100%
Epithelial discoidin domain-containing receptor 1 (DDR1, Homo sapiens, UniProt Q08345): 100%
Ribosomal protein S6 kinase alpha-4, C-terminal kinase domain (RPS6KA4, Homo sapiens, UniProt O75676): 97%
Mast/stem cell growth factor receptor Kit (KIT, Homo sapiens, UniProt P10721, T670I/V559D): 92%
TRAF2 and NCK-interacting protein kinase (TNIK, Homo sapiens, UniProt Q9UKE5): 81%
Ribosomal protein S6 kinase alpha-2, C-terminal kinase domain (RPS6KA2, Homo sapiens, UniProt Q15349): 99%

Study 4
Species: human
Sample: microsomes or S9
Tested at: 2 µM
Time: 0.5 h
Measurement: remaining compound
COc1nc(C)cc(C)c1-c1nc2c([nH]1)CC(C)(C)CNC2=O: 83.8%
Cc1c(C)n(C2CCCCC2)c2ncn(CCCO)c(=N)c12: > 99%
O=c1[nH]c2ccc(NCc3ccc(-c4ccccc4)cc3)cc2[nH]1: 87.5%
CCOC(=O)N1CCN(c2ncc3c(n2)CC(c2cc(OC)c(OC)c(OC)c2)CC3=O)CC1 (stereo not drawn): 94.6%
CCCCC/N=c1\n(C)c(=O)nc2sccn12: 37.8%
CSC1=N/C(=C\c2ccc(C(=O)O)cc2)C(=O)S1: > 99%
NS(=O)(=O)c1ccc(CCNS(=O)(=O)Cc2ccccc2Cl)cc1: 88.6%
CCOc1ccc(C(C)=O)cc1COc1ncnc2ccc(Br)cc12: > 100%
CN(C)CCCC(C#N)c1cccc2ccccc12 (stereo not drawn): > 99%

Some of these lines once more (study 3):
cGMP-dependent protein kinase 1 (PRKG1, Homo sapiens, UniProt Q13976): 100%
Epithelial discoidin domain-containing receptor 1 (DDR1, Homo sapiens, UniProt Q08345): 100%
Ribosomal protein S6 kinase alpha-4, C-terminal kinase domain (RPS6KA4, Homo sapiens, UniProt O75676): 97%
